{"data": "Measurements pooled from the literature", "organism": "Plasmodium falciparum", "note": "Lines come from different studies, so protocols differ. ± gives the spread as reported."}
{"Compound": "COC1=CC(c2ccc[nH]2)=NC1=CNC1CC1", "test": "parasite growth, SYBR Green I fluorescence", "test system": "D6, chloroquine-sensitive", "endpoint": "IC50", "value": "2400 nM"}
{"Compound": "Clc1ccc2c(c1)nc(N1CCNCC1)n2-c1ccccc1", "test": "pLDH", "test system": "NF54", "conditions": "concentration not given, 48 h", "endpoint": "antiplasmodial activity", "value": "inactive"}
{"Compound": "Cc1ccc(NCC(=O)Nc2ccc(F)c(Cl)c2)cc1C(=O)N1CCOCC1", "test": "parasite growth", "test system": "3D7", "conditions": "blood stage", "endpoint": "EC50", "value": "> 50000 nM"}
{"Compound": "CC[C@H](C)[C@@H]1NC(=O)[C@H](CCCCN)NC(=O)[C@H](CCCCN)NC(=O)[C@H](Cc2ccc(O)cc2)NC(=O)[C@H](CC(C)C)NC(=O)[C@@H]2CCCN2C(=O)[C@H](C)NC(=O)CNC(=O)CNC(=O)[C@H](CO)NC(=O)CNC(=O)CNC(=O)[C@H](CO)NC(=O)[C@H](CCC(=O)O)NC(=O)[C@H](CC(C)C)NC(=O)[C@H](CC(C)C)NC(=O)[C@H](CCCCN)NC(=O)[C@H](CCCCN)NC(=O)[C@H]([C@@H](C)CC)NC(=O)[C@H]([C@@H](C)CC)NC(=O)[C@H](CCCCN)NC(=O)[C@H](CCCCN)NC(=O)[C@H](Cc2ccc(O)cc2)NC(=O)[C@H](CC(C)C)NC(=O)[C@@H]2CCCN2C(=O)[C@H](C)NC(=O)CNC(=O)[C@@H]2CSSC[C@H](NC(=O)[C@H](CC(C)C)NC(=O)[C@H](CCCCN)NC(=O)[C@H](CCCCN)NC(=O)[C@H]([C@@H](C)CC)NC1=O)C(=O)N[C@@H](CCC(=O)O)C(=O)N[C@@H](CC(N)=O)C(=O)NCC(=O)N2", "test system": "3D7", "conditions": "5 mg/mL Albumax II", "scale": "reference: RBC HC10 over P. falciparum IC50", "endpoint": "selectivity index", "value": "> 3"}
{"Compound": "CN(C)c1ncnc2c1c(-c1ccc(Oc3ccccc3)cc1)cn2C1CCCC1", "test system": "FVO", "conditions": "invasion IC50", "endpoint": "schizont rupture", "value": "no effect"}
{"Compound": "COc1cc(O)c(-c2cc(-c3cc(-c4c(O)cc5c(c4OC)[C@H](C)N[C@H](C)C5)c4cc(C)cc(OC)c4c3O)c(O)c3c(OC)cc(C)cc23)c2c1[C@H](C)N[C@H](C)C2", "test": "gametocyte viability, luciferase reporter", "test system": "NF54-Pfs16-GFP-Luc, late stage IV/V", "conditions": "5 µM, 48 h", "endpoint": "inhibition", "value": "> 70%"}
{"Compound": "CC[C@H](C)[C@@H]1NC(=O)[C@H](CCCCN)NC(=O)[C@H](CCCCN)NC(=O)[C@H](Cc2ccc(O)cc2)NC(=O)[C@H](CC(C)C)NC(=O)[C@@H]2CCCN2C(=O)[C@H](C)NC(=O)CNC(=O)CNC(=O)[C@H](CO)NC(=O)CNC(=O)CNC(=O)[C@H](CO)NC(=O)[C@H](CCC(=O)O)NC(=O)[C@H](CC(C)C)NC(=O)[C@H](CC(C)C)NC(=O)[C@H](CCCCN)NC(=O)[C@H](CCCCN)NC(=O)[C@H]([C@@H](C)CC)NC(=O)[C@H]([C@@H](C)CC)NC(=O)[C@H](CCCCN)NC(=O)[C@H](CCCCN)NC(=O)[C@H](Cc2ccc(O)cc2)NC(=O)[C@H](CC(C)C)NC(=O)[C@@H]2CCCN2C(=O)[C@H](C)NC(=O)CNC(=O)CNC(=O)[C@H](CO)NC(=O)CNC(=O)CNC(=O)[C@H](CO)NC(=O)[C@H](CCC(=O)O)NC(=O)[C@H](CC(C)C)NC(=O)[C@H](CC(C)C)NC(=O)[C@H](CCCCN)NC(=O)[C@H](CCCCN)NC(=O)[C@H]([C@@H](C)CC)NC1=O", "test system": "3D7", "conditions": "5 mg/mL Albumax II", "scale": "reference: RBC HC10 over P. falciparum IC50", "endpoint": "selectivity index", "value": "11.7 ± 2.6"}
{"Compound": "Cc1ccc(CNC(=O)[C@H](CCc2ccccc2)NC(=O)[C@@H](N)CCc2ccccc2)cc1", "test system": "D10", "conditions": "72 h", "scale": "reference: HFF EC50 over P. falciparum EC50", "endpoint": "selectivity ratio", "value": "> 6"}
{"Compound": "Cc1cc(N2CC[C@](C#N)(C3(C)CC3)C2=O)cc(C(=O)NCc2cc(F)cc(-c3cnn(C)c3)c2)n1", "test": "SYBR Green I", "test system": "3D7", "conditions": "up to 2 µM, asexual blood stage", "endpoint": "growth inhibition", "value": "no inhibition"}
{"Compound": "COc1cc2nc(N3CCCCC3)nc(NC3CCN(C)CC3)c2cc1OC", "test": "Western blot", "test system": "3D7", "conditions": "5-fold IC50, 12 h", "scale": "reference: DMSO", "endpoint": "H3K4me3 level", "value": "decreased"}
{"Compound": "C[OH+][Cu-2]12[O]C(c3cn(-c4ccccc4)nc3-c3ccccc3)=N[N+]1=C(C)c1c(cc(C)oc1=O)[O]2 (stereo not drawn)", "test system": "3D7", "conditions": "100 µg/mL, 72 h", "endpoint": "parasitaemia", "value": "0%"}
{"Compound": "COc1cc(C)c(-c2ccc3c(c2O)[C@@H](C)N[C@H](C)C3)c2ccc(-c3c(C)c(-c4ccc5c(c4O)[C@@H](C)N[C@H](C)C5)c4cccc(OC)c4c3O)c(O)c12", "test": "gametocyte viability, luciferase reporter", "test system": "NF54-Pfs16-GFP-Luc, late stage IV/V", "conditions": "5 µM, 48 h", "endpoint": "inhibition", "value": "> 70%"}
{"Compound": "C[OH+][Cu-2]12[O]C(c3cn(-c4ccccc4)nc3-c3ccc(F)cc3)=N[N+]1=C(C)c1c(cc(C)oc1=O)[O]2 (stereo not drawn)", "test system": "3D7", "conditions": "12.5 µg/mL, 72 h", "endpoint": "parasitaemia", "value": "2%"}
{"Compound": "CCCCN1C(=O)c2ccc3c4c(ccc(c24)C1=O)C(=O)N(CCNc1c2ccc(Cl)cc2nc2ccc(OC)cc12)C3=O", "test": "parasite growth", "test system": "3D7", "conditions": "50 nM, 12 h, schizont stage", "endpoint": "inhibition", "value": "~30%"}
{"Compound": "C[C@H]1[C@@H](CCCOCc2cnnn2CCC[C@H]2O[C@@H]3O[C@@]4(C)CC[C@H]5[C@H](C)CC[C@@H]([C@H]2C)[C@@]35O4)O[C@@H]2O[C@@]3(C)CC[C@H]4[C@H](C)CC[C@@H]1[C@@]24O3", "test system": "W2", "conditions": "72 h", "scale": "reference: HepG2 over blood-stage parasites", "endpoint": "selectivity index", "value": "> 4.68"}
{"Compound": "C[OH+][Cu-2]12[O]C(c3cn(-c4ccccc4)nc3-c3ccc(Cl)cc3)=N[N+]1=C(C)c1c(cc(C)oc1=O)[O]2 (stereo not drawn)", "test system": "3D7", "conditions": "100 µg/mL, 72 h", "endpoint": "parasitaemia", "value": "1.9%"}
{"Compound": "Cc1ccc(CNC(=O)[C@@H](NC(=O)[C@H](CCc2ccccc2)NC(=O)[C@H](CCc2ccccc2)N(C)Cc2cnccn2)C(C)C)cc1", "test system": "D10", "conditions": "72 h", "scale": "reference: HFF EC50 over P. falciparum EC50", "endpoint": "selectivity ratio", "value": 587}
{"Compound": "C[OH+][Cu-2]12[O]C(c3cn(-c4ccccc4)nc3-c3ccc(Br)cc3)=N[N+]1=C(C)c1c(cc(C)oc1=O)[O]2 (stereo not drawn)", "test system": "3D7", "conditions": "100 µg/mL, 72 h", "endpoint": "parasitaemia", "value": "1.9%"}
{"Compound": "CCC1=C(C)C(c2ccc[nH]2)=NC1=CNC1CCCCCC1", "test": "parasite growth, SYBR Green I fluorescence", "test system": "D6, chloroquine-sensitive", "endpoint": "IC50", "value": "150 nM"}
{"Compound": "COc1ccc2c(c1)C1CC(C)(N2)c2c(C)nc3ccc(OC)cc3c21 (stereo not drawn)", "test": "ring stage growth", "test system": "INDO", "conditions": "12 h, early to late ring", "endpoint": "IC50", "value": "7200 nM"}
{"Compound": "CN1CCC[C@@H]1C(=O)N[C@@H](Cc1ccc(-c2ccccc2)cc1)B(O)O", "test system": "Pf3D7 0087/N9, SCID mouse", "conditions": "oral, 50 mg/kg, daily for 4 days", "endpoint": "residual parasitaemia", "value": "0.14%"}
{"Compound": "c1ccc2c(NCCNc3ncnc4cc(OCC5CCN(CCNc6ccnc7ccccc67)CC5)ccc34)cccc2c1", "test system": "NF54", "conditions": "concentration not given, 6 h, early ring stage, IC50 concentration", "endpoint": "parasites killed", "value": "≤ 90%"}
{"Compound": "Cc1ccc(CNC(=O)[C@@H](NC(=O)[C@H](CCc2ccccc2)NC(=O)[C@H](CCc2ccccc2)NCc2cnccn2)C(C)C)cc1", "test system": "D10", "conditions": "72 h", "scale": "reference: HFF EC50 over P. falciparum EC50", "endpoint": "selectivity ratio", "value": "> 226"}
{"Compound": "CC[C@H](C)[C@H](NC(=O)[C@@H](NC(=O)[C@H](Cc1ccc(O)cc1)NC(=O)[C@H](CCCCN)NC(=O)[C@H](CCCCN)NC(=O)[C@H](CC(C)C)NC(=O)[C@H](CC(=O)O)NC(=O)[C@H](Cc1ccc(O)cc1)NC(=O)[C@H](CCC(N)=O)NC(=O)[C@H](CCCCN)NC(=O)[C@@H](NC(=O)[C@H](Cc1ccccc1)NC(=O)[C@H](CCCCN)NC(=O)[C@H](CCCCN)NC(=O)[C@H](Cc1c[nH]c2ccccc12)NC(=O)[C@H](CCCCN)NC(=O)[C@H](CCSC)NC(=O)[C@H](CCCNC(=N)N)NC(=O)[C@H](CCCNC(=N)N)NC(=O)[C@H](CC(N)=O)NC(=O)[C@H](CCC(N)=O)NC(=O)[C@H](Cc1ccccc1)NC(=O)[C@H](Cc1c[nH]c2ccccc12)NC(=O)[C@@H](NC(=O)[C@H](CCCCN)NC(=O)[C@@H](NC(=O)[C@H](CCC(N)=O)NC(=O)[C@@H](N)CCCNC(=N)N)[C@@H](C)CC)[C@@H](C)CC)[C@@H](C)CC)[C@@H](C)CC)C(=O)O", "test": "mitochondrial membrane potential", "conditions": "90 µM, 3 h", "endpoint": "JC-1 red/green ratio", "value": "~0.4"}
{"Compound": "C[OH+][Cu-2]12[O]C(c3cn(-c4ccccc4)nc3-c3ccc(C)cc3)=N[N+]1=C(C)c1c(cc(C)oc1=O)[O]2 (stereo not drawn)", "test system": "3D7", "conditions": "12.5 µg/mL, 72 h", "endpoint": "parasitaemia", "value": "0%"}
{"Compound": "CCOC(=O)c1cn(-c2nc(C)n[nH]2)nn1", "test": "parasite growth", "test system": "NF54", "conditions": "1 µM, gametocyte", "endpoint": "inhibition", "value": "49.3%"}
{"Compound": "Nc1ncnc2c1c(-c1ccc(Oc3ccccc3)cc1)cn2C1CCCC1", "test": "non-permeabilizing IFA", "conditions": "60 µM", "endpoint": "AMA1 secretion", "value": "no effect"}
{"Compound": "CCN(CC)c1ccc2nc3c4ccccc4/c(=N/c4ccncc4)cc-3oc2c1", "test system": "NF54", "conditions": "62.5 ng/mL, 24 h, rings, trophozoites, schizonts", "endpoint": "growth inhibition", "value": "> 99%"}
{"Compound": "O=C(CCc1ccc[nH]1)NCC(=O)NC12CC3CC(CC(C3)C1)C2", "test": "parasite growth, SYBR Green I fluorescence", "test system": "D6, chloroquine-sensitive", "endpoint": "IC50", "value": "> 2500 nM"}
{"Compound": "Cc1ccc(NCC(=O)Nc2ccc(F)c(Cl)c2)cc1S(=O)(=O)N1CCOCC1", "test system": "stage IV/V gametocytes", "conditions": "40 µM", "endpoint": "antiplasmodial activity", "value": "inactive"}
{"Compound": "CC1=CC(c2ccc[nH]2)=NC1=CNC12CC3CC(CC(C3)C1)C2", "test": "parasite growth, SYBR Green I fluorescence", "test system": "D6, chloroquine-sensitive", "endpoint": "IC50", "value": "1.3 nM"}
{"Compound": "Cc1ccc(NCC(=O)N(C)c2ccc(F)c(Cl)c2)cc1S(=O)(=O)N1CCOCC1", "test": "parasite growth", "test system": "3D7", "conditions": "blood stage", "endpoint": "EC50", "value": "> 50000 nM"}
{"Compound": "CC1CCN(Cc2cc(/C=C/C(=O)c3ccc(F)cc3)ccc2O)CC1", "test system": "3D7", "scale": "reference: WRL68 IC50 over P. falciparum EC50", "endpoint": "selectivity index", "value": 1.74}
{"note": "Excerpt of the above:"}
{"Compound": "COc1ccc2c(c1)C1CC(C)(N2)c2c(C)nc3ccc(OC)cc3c21 (stereo not drawn)", "test": "ring stage growth", "test system": "INDO", "conditions": "12 h, early to late ring", "endpoint": "IC50", "value": "7200 nM"}
{"Compound": "c1ccc2c(NCCNc3ncnc4cc(OCC5CCN(CCNc6ccnc7ccccc67)CC5)ccc34)cccc2c1", "test system": "NF54", "conditions": "concentration not given, 6 h, early ring stage, IC50 concentration", "endpoint": "parasites killed", "value": "≤ 90%"}
{"Compound": "COc1cc2nc(N3CCCCC3)nc(NC3CCN(C)CC3)c2cc1OC", "test": "Western blot", "test system": "3D7", "conditions": "5-fold IC50, 12 h", "scale": "reference: DMSO", "endpoint": "H3K4me3 level", "value": "decreased"}
{"Compound": "C[OH+][Cu-2]12[O]C(c3cn(-c4ccccc4)nc3-c3ccc(C)cc3)=N[N+]1=C(C)c1c(cc(C)oc1=O)[O]2 (stereo not drawn)", "test system": "3D7", "conditions": "12.5 µg/mL, 72 h", "endpoint": "parasitaemia", "value": "0%"}
